Measurements pooled from the literature.
Each numbered part is a random draw from the data of one study; scales do not carry over between parts.

Series 1
Cell line: mouse MPNST tumor cells
Technique: high-content immunofluorescence imaging
Measured: nuclear SOX9
Tested at: 10 µM
Time: 12 h
Notes: mean of 2 replicates
Relative to: DMSO control
Reading: higher = more nuclear SOX9
Quantity: nuclear SOX9 intensity
CC(NCCc1ccc(O)cc1)C(O)c1ccc(O)cc1 (centres unmarked): 107 % of DMSO
Cc1ccc([N+](=O)[O-])cc1S(=O)(=O)N(C)C: 94.7 % of DMSO
Cc1ccc(S(=O)(=O)NCc2ccccc2)cc1: 91.1 % of DMSO
CC(=O)Nc1ccc(C(=O)Nc2ccccc2N)cc1: 88.7 % of DMSO
CCc1oc2ccccc2c1C(=O)c1cc(Br)c(O)c(Br)c1: 94.9 % of DMSO
O=C(Nc1ccc(Oc2ccc(Cl)cn2)c(Cl)c1)c1ccccn1: 119 % of DMSO
Cc1c(F)c(N2CCNC(C)C2)cc2c1c(=O)c(C(=O)O)cn2C1CC1 (centres unmarked): 89.9 % of DMSO
Cc1cccc(C)c1NC(=O)C(C)N (centres unmarked): 97.3 % of DMSO
CNc1nc(-c2ccc3c(N)n[nH]c3c2)cc(N2C[C@@H](C(=O)NC3CCCCC3)CC[C@H]2C)n1: 135 % of DMSO
CNc1nc(NCc2ccc(NS(C)(=O)=O)cc2Cl)cc(-c2ccccn2)n1: 124 % of DMSO

Series 2
Target: Receptor tyrosine-protein kinase erbB-2 (ERBB2, Homo sapiens, UniProt P04626)
Observed: enzyme activity
Action: inhibitor
Tested at: 0.5 µM
Relative to: control
Quantity: remaining activity
O=Nc1c(-c2c(O)[nH]c3ccccc23)[nH]c2ccccc12: 97.9%
NC(=O)c1cccc(-c2cc(Nc3ccc(OC(F)(F)F)cc3)ncn2)c1: 89.5%
CC(C)N(CCC(=O)c1ccc2ccccc2c1)Cc1ccccc1: 98.7%
NC(=O)c1ccc(-c2nc(-c3ccc4c(c3)OCCO4)c(-c3ccccn3)[nH]2)cc1: 97.9%
CCN(CC)CCCCN1c2ccccc2Oc2ccc(Cl)cc21: 96.6%
CCCCc1c(-c2ccc(O)cc2)[nH]c2nccnc12: 97.7%
CC(C)n1cnc2c(Nc3cccc(Cl)c3)nc(NCCO)nc21: 96.2%
O=C1c2ccccc2-c2nc3nnnn3nc21: 22.2%
O=C(O)/C=C/c1cc(Br)c(Br)c(Br)c1Br: 95.4%

Series 3
Cell line: normal organoid sample G
Technique: CellTiter-Glo
Species: human
Medium: normal-adjacent epithelium
Tested at: 1 µM
Relative to: DMSO
Quantity: viability
Nc1nc(NCc2ccccc2)nc(-c2ccccc2CO)n1: 113%
Cn1c(-c2csc(C3CCN(Cc4nc5ncccc5[nH]4)CC3)n2)nc2ccccc21: 104%
CO[C@@H](C)c1c(Nc2ccc([C@H](N(C)C(=O)C3CCS(=O)(=O)CC3)C(F)(F)F)cc2)cnc2cc(Cl)nn12: 96.1%
CN(C)CC#Cc1ccc(OCCCc2sc(N3CCc4cccc(C(=O)Nc5nc6ccccc6s5)c4C3)nc2C(=O)O)c(F)c1: 55.8%
Cc1ccc2nc(CNCCCOc3ccccc3)cc(O)c2c1: 92.5%
CN(C)C(=O)Cn1cc(-c2ccc(-c3cncc4ccccc34)cc2)cn1: 78%
Cc1c(C(=O)O)cc(-c2ccc(C3CCNCC3)cc2)c2ccc(-c3ccc(C(F)(F)F)cc3)cc12: 102%
CNC(=O)c1ccccc1Nc1cc(Nc2ccc(N3CCOCC3)cc2OC)ncc1C(F)(F)F: 31.3%
CNC(=O)c1cc(C(=O)N[C@H]2[C@@H]3COC[C@@H]32)cc2c1O[C@H](CF)[C@H]2c1ccccc1: 110%
CNc1nc(-c2ccc3c(N)n[nH]c3c2)cc(N2C[C@@H](C(=O)NC3CCCCC3)CC[C@H]2C)n1: 80.8%
N#CC1(c2ccccn2)CCN(Cc2cc(C(=O)O)c(=O)n3ccccc23)CC1: 108%
O=C(NS(=O)(=O)c1ccc(NCC2CCOCC2)c([N+](=O)[O-])c1)c1ccc(N2CCN(Cc3ccc(C(F)(F)F)cc3-c3ccc(Cl)cc3)CC2)cc1Oc1cnc2[nH]ccc2c1: 100%
CN(C)[C@H]1CCN(c2cc(-c3ccccc3)nc3ccnn23)C1: 119%
Nc1nc(NCc2ccccc2)nc(-c2cccc(CO)c2)n1: 105%
CC(=O)Nc1c(F)cc(C(=O)N[C@H]2CC[C@H](O)CC2)cc1O[C@@H](C)c1ccccc1: 120%
Cc1cnc(-c2cc(Cl)ccc2F)cc1-n1c(=O)n(CC(N)=O)c2cnccc21: 96.1%
O=C(NNS(=O)(=O)c1ccccc1F)c1cc(F)cc(-c2ccccn2)c1: 83.5%
Cc1c(N2CCNCC2)nc2ccc(Br)cc2c1C(=O)NC[C@H](CCC(=O)O)c1ccccc1Cl: 122%
Cc1c(Oc2ccc(F)cc2)c(OC(C)C)nn1-c1ccc(C2CC2)cn1: 107%
O=C(NCCN1CCOCC1)c1ccc2c(c1)C(=O)c1ccc(Nc3ccc(F)c(NC(=O)c4ccccc4)c3)cc1CC2: 92%
O=C(O)c1cc(-c2ccc(C3CCNCC3)cc2)c2ccc(-c3ccc(C(F)(F)F)cc3)cc2c1: 124%
C[C@@H](c1cccc(C#N)c1)n1cc(Cl)cc(C(N)=O)c1=N: 105%
Cc1ccccc1Oc1cc(-n2c(=O)cc(C(F)(F)F)[nH]c2=O)c2ccccc2c1Cl: 111%

Series 4
Cell line: A-375
Tested at: 100 µM
Time: 36 h
Quantity: viability
C[C@]12C=CC(=O)N[C@@H]1CC[C@@H]1[C@@H]2CC[C@]2(C)[C@@H](C(=O)Nc3cc(C(F)(F)F)ccc3C(F)(F)F)CC[C@@H]12: 61.5%
CC(=O)Oc1cccc2c1C(=O)c1c(OC(C)=O)cc(C(=O)O)cc1C2=O: 32.1%
COCCCN1CCC(NC(=O)c2cc(Cl)c(N)c3c2OCC3)CC1: 99%
Nc1ccc(S(=O)(=O)Nc2ccccn2)cc1: 97.5%
CCn1c(=O)c2c(nc(/C=C/c3ccc(OC)c(OC)c3)n2C)n(CC)c1=O: 98.5%
C[C@H]1[C@@H](O)O[C@@H]2O[C@@]3(C)CC[C@H]4[C@H](C)CC[C@@H]1[C@@]24OO3: 13.5%
CC(=O)O[C@H]1C[C@@]2(C)[C@@H](C[C@@H](O)[C@H]3[C@@]4(C)CC[C@@H](O)[C@@H](C)[C@@H]4CC[C@@]32C)/C1=C(\CCC=C(C)C)C(=O)O: 90.6%
CC1(C)O[C@@H]2C[C@H]3[C@@H]4CCC5=CC(=O)C=C[C@]5(C)[C@H]4[C@@H](O)C[C@]3(C)[C@]2(C(=O)CO)O1: 108%
